Published values of several laboratories.
Numbered parts are unrelated; each lists some results of a single study. Several values in a cell are separate wells, animals, samples, runs or records. pEC50, pIC50: −log10 of the molar value.

Set 1
Structure (SMILES): CCN1/C(=C/C=C2\CCCC(/C=C/C3=[N+](CC)c4ccccc4C3(C)C)=C2NCCCCCCCCN2CCC(Nc3nc4ccccc4n3Cc3ccc(F)cc3)CC2)C(C)(C)c2ccccc21
Cell line: U-87 MG
Tested at: concentration not given
Relative to: DMSO
Measurement: log2 fold change
refers to: FAM110B mRNA: 2.01
refers to: LAMB3 mRNA: -1
refers to: CCND3 mRNA: -1.65
refers to: XCR1 mRNA: -2.74
refers to: HIVEP3 mRNA: -1.44
refers to: PCDHGC4 mRNA: -1.01
refers to: BUB1B mRNA: -2.02
refers to: PSAP mRNA: 0.835
refers to: PCDH9 mRNA: 1.77
refers to: KIF23 mRNA: -2.13
refers to: ITPRIP mRNA: 0.871

Set 2
Compound: C[C@@H]1CN(c2ccc(-c3cc(C(=O)NCCOCCOCCOCCOCCOCCOCCNC(=O)/C=C/c4[nH]cc(C(=O)N[C@@H](CC(N)=O)c5ccc(F)c(Cl)c5)c4-c4ccc(Cl)cc4F)ccc3F)cc2NC(=O)c2ccc(F)cc2C(F)(F)F)C[C@H](C)N1C
Observed: thermal unfolding
Technique: differential scanning fluorimetry
Tested at: 5.5 µM
Direction: higher = more unfolded
Measurement: SYPRO Orange fluorescence
WDR5: WD repeat-containing protein 5 (WDR5, Homo sapiens, UniProt P61964)
DCAF1: DDB1- and CUL4-associated factor 1 (DCAF1, Homo sapiens, UniProt Q9Y4B6)
Chain of UniProt Q9Y4B6 (whole entry, looked up): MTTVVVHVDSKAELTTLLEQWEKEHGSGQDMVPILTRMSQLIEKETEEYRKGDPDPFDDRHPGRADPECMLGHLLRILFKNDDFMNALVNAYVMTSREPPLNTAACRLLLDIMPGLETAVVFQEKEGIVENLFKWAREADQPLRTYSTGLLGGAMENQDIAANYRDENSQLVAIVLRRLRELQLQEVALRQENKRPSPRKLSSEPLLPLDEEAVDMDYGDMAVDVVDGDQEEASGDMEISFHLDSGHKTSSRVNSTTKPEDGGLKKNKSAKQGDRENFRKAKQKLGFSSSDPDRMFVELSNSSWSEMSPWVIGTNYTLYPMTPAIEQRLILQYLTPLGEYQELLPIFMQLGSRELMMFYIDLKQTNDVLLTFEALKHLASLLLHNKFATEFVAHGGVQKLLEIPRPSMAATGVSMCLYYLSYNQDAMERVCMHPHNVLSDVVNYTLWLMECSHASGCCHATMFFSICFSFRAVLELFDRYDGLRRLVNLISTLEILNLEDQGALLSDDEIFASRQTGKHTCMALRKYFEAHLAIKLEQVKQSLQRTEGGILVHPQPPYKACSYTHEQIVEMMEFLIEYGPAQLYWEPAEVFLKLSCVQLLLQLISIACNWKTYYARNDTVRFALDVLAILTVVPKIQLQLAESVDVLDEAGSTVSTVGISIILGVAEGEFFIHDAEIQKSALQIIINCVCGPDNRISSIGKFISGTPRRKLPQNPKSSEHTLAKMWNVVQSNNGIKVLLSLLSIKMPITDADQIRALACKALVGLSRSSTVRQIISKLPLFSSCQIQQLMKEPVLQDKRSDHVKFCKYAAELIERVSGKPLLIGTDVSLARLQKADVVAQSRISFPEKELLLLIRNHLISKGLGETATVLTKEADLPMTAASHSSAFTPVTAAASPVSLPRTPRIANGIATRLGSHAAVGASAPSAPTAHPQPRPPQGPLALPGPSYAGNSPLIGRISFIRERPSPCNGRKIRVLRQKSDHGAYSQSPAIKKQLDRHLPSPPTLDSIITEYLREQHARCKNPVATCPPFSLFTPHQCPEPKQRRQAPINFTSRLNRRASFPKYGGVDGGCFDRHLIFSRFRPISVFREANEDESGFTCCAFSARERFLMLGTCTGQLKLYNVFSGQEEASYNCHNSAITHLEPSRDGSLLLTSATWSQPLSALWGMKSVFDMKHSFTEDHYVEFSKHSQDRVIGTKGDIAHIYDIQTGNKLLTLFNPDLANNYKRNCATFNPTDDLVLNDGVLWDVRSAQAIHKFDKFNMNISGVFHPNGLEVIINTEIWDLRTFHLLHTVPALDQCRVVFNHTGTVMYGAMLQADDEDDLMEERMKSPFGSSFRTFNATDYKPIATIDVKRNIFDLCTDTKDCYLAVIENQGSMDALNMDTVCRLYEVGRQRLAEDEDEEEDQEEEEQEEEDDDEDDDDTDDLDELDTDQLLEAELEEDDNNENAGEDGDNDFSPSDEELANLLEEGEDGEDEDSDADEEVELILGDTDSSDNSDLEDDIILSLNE
WDR5; 38 °C: 13800 a.u.
WDR5; 44.8 °C: 14600 a.u.
DCAF1; 84.41 °C: 36500 a.u.
DCAF1; 56.61 °C: 32700 a.u.
WDR5; 46.6 °C: 15000 a.u.
WDR5; 82.01 °C: 65700 a.u.
DCAF1; 64.01 °C: 54100 a.u.

Set 3
Technique: ultracentrifugation
Sample: mouse plasma
Tested at: 2 µM
Time: 4 h
pH: 7.4
Measurement: fraction unbound
Cc1ccc(O)c(C)c1-c1cnc2[nH]c(-c3cnc(N4CCC(CN5CCN(c6ccc(NC7CCC(=O)NC7=O)cc6F)CC5)CC4)nc3)cc2c1C#N (stereo not drawn): 0.022
Cc1ccc(O)c(C)c1-c1cnc2[nH]c(-c3cnc(N4CCC5(CC4)CC(N4CCN(c6ccc(NC7CCC(=O)NC7=O)cc6F)CC4)CO5)nc3)cc2c1C#N (stereo not drawn): 0.026
Cc1ccc(O)c(C)c1-c1cnc2[nH]c(-c3cnc(N4CCC5(CC4)CC(CN4CCN(c6ccc(NC7CCC(=O)NC7=O)cc6F)CC4)C5)nc3)cc2c1C#N (stereo not drawn): 0.026

Other studies, line by line
C#Cc1cccc2cc(O)cc(-c3ncc4c(N5CC6CCC(C5)N6)nc(OCC56CCCN5CCC6)nc4c3F)c12 — pIC50 (GTPase KRas (KRAS, Homo sapiens, UniProt P01116, G12V); target engagement in cells, BRET): 6.15
CN1CCC[C@H]1COc1nc2c(c(N3CCN(C(=O)C4CC4)[C@@H](CC#N)C3)n1)CCN(c1cccc3cccc(Cl)c13)C2 — normalized BRET (GTPase KRas (KRAS, Homo sapiens, UniProt P01116, Q61L); binding, competitor, NanoBRET; HEK293; 137 nM): 86% and 94.1% and 92%
O=C(CCCCn1ccnc1Cn1ccc2ccc(CNCc3[nH]c4ccccc4c3C3NC(=O)c4ccc(O)cc43)cc21)NCCOCCOCCOCCNC(=O)CCc1ccc2n1[B-](F)(F)[N+]1=C(c3ccc[nH]3)C=CC1=C2 (stereo not drawn) — pEC50 (GTPase HRas (HRAS, Homo sapiens, UniProt P01112, G12C)): 6.18
